Measured values gathered from unrelated publications.
Each numbered part is a random draw from the data of one study; scales do not carry over between parts.

Study 1
Target: Interferon regulatory factor 5, full length, phosphomimetic (IRF5, Homo sapiens, UniProt Q13568-2, residues 1-514, S451D/S453D/S456D/S462D)
Technique: protein-binding microarray
Molecule type: double-stranded DNA, one strand shown
Medium: in vitro
Tested at: 940 nM top
Notes: 60-bp whole probe
Together with: salmon DNA 0.4 mg/ml
Relative to: random background probes
Direction: higher = stronger binding
Constant ends, left off below: GCCTAGCAC … GTCTTGATTCGCTTGACGCTGCTG
| Strand | fitted relative affinity |
| --- | --- |
| TCAAGTTTCCATTTTCTACTGTGCTAG | 2.16 z-score |
| TTTGATATCAGACTGGATTAGTGCTAG | -0.411 z-score |
| TTAGGTATCCTTCTTCTTTAGTGCTAG | 1.17 z-score |
| AACTCTCTAATTTTGAGACTGTGCTAG | 0.335 z-score |
| GACGATTTCGGGATTCGAGACGTGCTA | 0.482 z-score |
| TTTGGTTTGTACACCGCCTTGTGCTAG | -0.0887 z-score |

Study 2
Target: Fragile X messenger ribonucleoprotein 1, C-terminal low-complexity region (Fmr1, Mus musculus, UniProt P35922)
Technique: RNA Bind-n-Seq
Molecule type: RNA
Medium: in vitro
Tested at: 200 nM
Notes: whole 134-nt RNA, ends assumed
Together with: 150 mM KCl
Relative to: input library
Direction: higher = stronger binding
| Strand | log2 enrichment |
| --- | --- |
| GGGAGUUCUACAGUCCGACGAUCUCCUGUGCUACACAUCGUAUGUACCGAAUCGGCCCCCCCGGCCCCCCCGGCCCCCCCGGAAAGUAUUAUGUUACGCCGUUCGGAUCUGCAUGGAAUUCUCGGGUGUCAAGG | 0.362 |
| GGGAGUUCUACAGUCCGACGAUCGUCCUGUGCUACACAUCGUAUGUACCGAAUCGGGAAAAAAAGGGUUUUUUUGGGAGGGAAAGUAUUAUGUUACGCCGUUCGGAUCUGCACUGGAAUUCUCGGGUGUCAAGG | 0.0762 |
| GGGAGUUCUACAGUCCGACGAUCUCCUGUGCUACACAUCGUAUGUACCGAAUCGGGGUUUUUGGGUUUUUGGGGUUUUUGGGAAAGUAUUAUGUUACGCCGUUCGGAUCUGCAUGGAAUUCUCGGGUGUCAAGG | 0.503 |
| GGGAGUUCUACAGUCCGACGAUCUAACUUUAGAGGAGGAUCUGAUGGAUAUGGCAGUGGACGUGGAUUUGGGGAUGGCUAUAAUGGGUAUGGAGGAGGACCUGGAGGUUGCAAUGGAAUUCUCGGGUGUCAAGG | 0.0795 |
| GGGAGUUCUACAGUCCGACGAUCUUGACUAUAUUGUGGAGUAUGACUAUGAUGCUGUACAUGAUGAUGAAUUAACUAUUCGAGUUGGAGAAAUCAUCAGGAAUGUGAAAAAGCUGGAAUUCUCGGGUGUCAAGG | -1.45 |
| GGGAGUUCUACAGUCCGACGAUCCACAGACAACACGCACCCACACAGACACAGAGGGAAGGGGUUGGGAUGGGGACAGUGUGCACAGCAGGGCGGGGUAGGACCCCAGCCCCUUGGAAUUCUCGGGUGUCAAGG | 1.22 |

Study 3
Target: RNA binding protein fox-1 homolog 2, RRM domain, GST-SBP tag (RBFOX2, Homo sapiens, UniProt O43251-10, residues 100-194)
Technique: RNA Bind-n-Seq
Molecule type: RNA
Medium: in vitro
Tested at: 365 nM
Notes: natural RNA segment, single round, ends assumed
Relative to: no-protein control
Direction: higher = stronger binding
Target sequence (chain): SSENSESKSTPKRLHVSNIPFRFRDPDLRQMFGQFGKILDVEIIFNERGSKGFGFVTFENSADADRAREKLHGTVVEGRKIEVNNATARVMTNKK
| Strand | RBNS enrichment (R) |
| --- | --- |
| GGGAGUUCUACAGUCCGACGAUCGGUCCUGAUGUUGUAUGUACUAUAUAAAGAGACCCCUCCCCUUAUAUUGUGUUUUCCAUCCCUCACCCUCAACAGGAUUAAAAUAAAACAUGCUGGGUUUUUUUGUUUUGUGGAAUUCUCGGGUGCCAA | 0.9 |
| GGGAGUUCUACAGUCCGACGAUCCCAAGGGCCUGAAUUUUAACUUCCUGUGCACAAUGUACCUUUUGAGAUGAUUCGAAGGGCCUUUCACUUUUAUUAAACAGUGACUUGUUUGACUGUGCUCCCUGGUCCUGUGGAAUUCUCGGGUGCCAA | 0.446 |
| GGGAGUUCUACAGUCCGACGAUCGGGACCUUGUGGGCGUGGGACACCACUUCCUGCCGAGCGAGCCCACAAAAUGGAAUGUAGAGGAUGUCUAUGAGUUCAUCCGCUCUCUGCCAGGCUGCCAGGAGAUCGCGUGGAAUUCUCGGGUGCCAA | 0.524 |
| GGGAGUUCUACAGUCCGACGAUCAACUCAAGUAGAACAAAUCCCUUCUUGGUCUUCUGGGACCACUAGAGGUCACCGUGUCCAGUCCUUUGCCUCACCCCCACUGCCCCAGUCUGUAUGCACUGAAAAACGUCUGGAAUUCUCGGGUGCCAA | 0.875 |
| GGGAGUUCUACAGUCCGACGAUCCAGCCAGCACAGGAUUUGUCCUCAUUCCGUGGGUGAUGGAUGAAUCUAUUGGAGUCCUGAAUAAAUGCUGCUCUUUGGCUUCCAAAACCCUGCUCUCUCUGGCCUUGGGUUGGAAUUCUCGGGUGCCAA | 0.299 |
| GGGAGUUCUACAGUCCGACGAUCGCAAUUUGGUUGUAAAGAUUUGAUUCCUUUGUGUUCAUCUGUUCCGCUUCUCAGCGGUCCAUCUCAGCGUCUCCCUUCAGGAACCGCUGAGUGUCCUCUCUUAACAUCCAUGGAAUUCUCGGGUGCCAA | 0.258 |
| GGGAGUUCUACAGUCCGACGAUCGGUGCCAGGAAAUUGAUUUUGGAAAAAGUGAAAUAACAUUAAAGGUGAAUGUGAGGCUUCUACUUUUAUCCAAAAGGAGCUAUAUUAGCUAGGCUGUUUCUGAUAUCCAAUGGAAUUCUCGGGUGCCAA | 0.673 |

Single results of other studies
| Substance | target | test | test system | conditions | how to read | quantity | result |
| --- | --- | --- | --- | --- | --- | --- | --- |
| PhoQ, residues 284 288 289 292 302 303 ALVSVA | PhoP, residues 12 14 15 18 19 TTLRV (Escherichia coli, UniProt P23836) | Sort-seq, refers to: YFP reporter | E. coli | PhoQ-PhoP variant library, together with: 10 µM Mg2+ | relative to: high Mg2+ state, higher = stronger signaling | fold induction | 4.35 |
